Measurements from different studies.
Protocols differ between the studies behind these lines. ± gives the spread as reported.
AKR1C3: Aldo-keto reductase family 1 member C3 (AKR1C3, Homo sapiens, UniProt P42330)
Chain of UniProt P42330 (whole entry, looked up): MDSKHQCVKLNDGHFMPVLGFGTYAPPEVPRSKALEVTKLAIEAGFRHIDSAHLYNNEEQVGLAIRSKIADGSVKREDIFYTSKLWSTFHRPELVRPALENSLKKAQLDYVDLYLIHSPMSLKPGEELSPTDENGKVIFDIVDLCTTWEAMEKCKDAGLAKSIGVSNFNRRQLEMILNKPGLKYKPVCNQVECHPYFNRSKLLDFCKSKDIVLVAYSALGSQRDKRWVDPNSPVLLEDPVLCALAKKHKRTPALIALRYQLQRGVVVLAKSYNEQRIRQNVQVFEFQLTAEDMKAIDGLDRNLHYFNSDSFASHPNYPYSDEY
ST6GAL1: Beta-galactoside alpha-2,6-sialyltransferase 1 (ST6GAL1, Homo sapiens, UniProt P15907)
Chain of UniProt P15907 (whole entry, looked up): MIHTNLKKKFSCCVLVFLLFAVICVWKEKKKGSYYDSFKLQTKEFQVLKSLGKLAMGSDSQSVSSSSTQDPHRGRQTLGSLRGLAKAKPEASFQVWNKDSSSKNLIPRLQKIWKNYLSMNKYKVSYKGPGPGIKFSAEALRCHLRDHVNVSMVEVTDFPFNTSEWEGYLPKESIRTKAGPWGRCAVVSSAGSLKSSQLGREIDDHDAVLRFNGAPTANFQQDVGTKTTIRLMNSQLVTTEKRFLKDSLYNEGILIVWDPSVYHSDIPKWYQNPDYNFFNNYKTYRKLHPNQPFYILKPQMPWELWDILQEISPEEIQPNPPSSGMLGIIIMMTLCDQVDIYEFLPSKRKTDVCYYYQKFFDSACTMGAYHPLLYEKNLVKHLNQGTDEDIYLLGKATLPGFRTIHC
CDK2 with cyclin A2: Cyclin-dependent kinase 2, with cyclin A2 (CDK2, Homo sapiens, UniProt P24941)
SIRT6: NAD-dependent protein deacylase sirtuin-6 (SIRT6, Homo sapiens, UniProt Q8N6T7)
Chain of UniProt Q8N6T7 (whole entry, looked up): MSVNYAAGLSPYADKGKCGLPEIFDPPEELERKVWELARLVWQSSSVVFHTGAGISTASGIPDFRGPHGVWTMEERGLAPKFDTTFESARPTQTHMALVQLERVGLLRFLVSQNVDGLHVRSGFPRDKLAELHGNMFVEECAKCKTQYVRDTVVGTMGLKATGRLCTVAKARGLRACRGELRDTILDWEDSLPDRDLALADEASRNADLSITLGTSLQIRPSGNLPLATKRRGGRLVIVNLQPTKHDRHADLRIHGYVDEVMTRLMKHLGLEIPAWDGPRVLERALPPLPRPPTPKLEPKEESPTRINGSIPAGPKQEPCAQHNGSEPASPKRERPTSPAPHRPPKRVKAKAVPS
Ectonucleoside triphosphate diphosphohydrolase 2: Ectonucleoside triphosphate diphosphohydrolase 2 (Homo sapiens, UniProt Q9Y5L3)
Chain of UniProt Q9Y5L3 (whole entry, looked up): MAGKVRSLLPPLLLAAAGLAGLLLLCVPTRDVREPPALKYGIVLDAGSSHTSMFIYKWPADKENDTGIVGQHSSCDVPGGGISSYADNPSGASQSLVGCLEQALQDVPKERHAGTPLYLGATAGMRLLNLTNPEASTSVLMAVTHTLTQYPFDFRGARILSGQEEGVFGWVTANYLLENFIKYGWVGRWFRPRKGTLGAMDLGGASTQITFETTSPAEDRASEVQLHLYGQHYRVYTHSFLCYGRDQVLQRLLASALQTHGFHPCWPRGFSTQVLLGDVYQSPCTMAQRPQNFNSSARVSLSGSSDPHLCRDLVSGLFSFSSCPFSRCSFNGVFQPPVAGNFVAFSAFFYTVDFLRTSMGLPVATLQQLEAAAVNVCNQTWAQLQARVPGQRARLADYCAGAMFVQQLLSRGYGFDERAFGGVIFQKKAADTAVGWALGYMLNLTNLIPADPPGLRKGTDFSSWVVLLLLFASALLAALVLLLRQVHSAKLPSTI
NTRK1: High affinity nerve growth factor receptor (NTRK1, Homo sapiens, UniProt P04629)
Chain of UniProt P04629 (whole entry, looked up): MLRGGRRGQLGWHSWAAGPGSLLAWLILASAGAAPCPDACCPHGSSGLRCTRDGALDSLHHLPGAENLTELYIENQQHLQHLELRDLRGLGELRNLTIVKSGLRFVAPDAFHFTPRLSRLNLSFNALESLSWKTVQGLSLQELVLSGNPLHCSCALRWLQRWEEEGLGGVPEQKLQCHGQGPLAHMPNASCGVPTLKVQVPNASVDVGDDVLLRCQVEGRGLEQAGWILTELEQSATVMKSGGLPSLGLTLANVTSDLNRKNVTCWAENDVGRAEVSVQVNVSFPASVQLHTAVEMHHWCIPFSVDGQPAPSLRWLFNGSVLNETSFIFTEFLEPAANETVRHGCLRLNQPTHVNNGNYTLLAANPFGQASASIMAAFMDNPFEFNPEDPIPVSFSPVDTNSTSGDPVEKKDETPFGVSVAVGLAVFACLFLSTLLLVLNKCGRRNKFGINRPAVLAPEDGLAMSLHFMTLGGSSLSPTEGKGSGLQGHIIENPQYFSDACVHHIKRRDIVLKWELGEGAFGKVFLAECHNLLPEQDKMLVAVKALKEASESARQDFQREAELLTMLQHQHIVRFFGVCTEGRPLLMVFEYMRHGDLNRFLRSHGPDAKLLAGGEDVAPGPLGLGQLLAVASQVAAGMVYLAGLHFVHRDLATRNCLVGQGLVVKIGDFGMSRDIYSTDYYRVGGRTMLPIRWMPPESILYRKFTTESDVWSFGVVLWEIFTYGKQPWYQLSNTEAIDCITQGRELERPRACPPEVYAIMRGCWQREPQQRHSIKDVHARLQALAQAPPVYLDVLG
Sialyltransferase ST3Gal-I: Sialyltransferase ST3Gal-I (Rattus norvegicus, UniProt Q6H8N0)
Chain of UniProt Q9BVS4 (whole entry, looked up): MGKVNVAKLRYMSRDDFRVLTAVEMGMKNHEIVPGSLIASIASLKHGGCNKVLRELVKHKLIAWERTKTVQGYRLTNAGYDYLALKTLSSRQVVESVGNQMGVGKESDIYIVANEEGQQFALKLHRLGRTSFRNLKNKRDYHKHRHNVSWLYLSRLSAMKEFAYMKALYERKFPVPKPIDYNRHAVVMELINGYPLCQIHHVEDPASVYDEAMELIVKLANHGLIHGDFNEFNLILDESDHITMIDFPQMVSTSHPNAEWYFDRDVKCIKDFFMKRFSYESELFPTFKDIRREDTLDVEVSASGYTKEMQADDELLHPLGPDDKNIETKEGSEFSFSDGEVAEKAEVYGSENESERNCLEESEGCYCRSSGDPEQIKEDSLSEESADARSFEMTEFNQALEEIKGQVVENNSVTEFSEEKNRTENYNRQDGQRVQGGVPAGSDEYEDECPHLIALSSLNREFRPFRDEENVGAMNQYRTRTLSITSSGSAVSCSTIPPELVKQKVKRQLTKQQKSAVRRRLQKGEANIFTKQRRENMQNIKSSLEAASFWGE
Chain of UniProt Q6GI75 (whole entry, looked up): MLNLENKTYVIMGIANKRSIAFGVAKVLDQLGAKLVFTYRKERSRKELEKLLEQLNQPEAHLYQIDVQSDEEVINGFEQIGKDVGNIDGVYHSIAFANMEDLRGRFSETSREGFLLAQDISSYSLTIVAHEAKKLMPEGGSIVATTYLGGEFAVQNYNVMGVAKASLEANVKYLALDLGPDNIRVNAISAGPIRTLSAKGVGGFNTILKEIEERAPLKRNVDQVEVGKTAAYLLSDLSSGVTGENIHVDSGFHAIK
Chain of UniProt P53341 (whole entry, looked up): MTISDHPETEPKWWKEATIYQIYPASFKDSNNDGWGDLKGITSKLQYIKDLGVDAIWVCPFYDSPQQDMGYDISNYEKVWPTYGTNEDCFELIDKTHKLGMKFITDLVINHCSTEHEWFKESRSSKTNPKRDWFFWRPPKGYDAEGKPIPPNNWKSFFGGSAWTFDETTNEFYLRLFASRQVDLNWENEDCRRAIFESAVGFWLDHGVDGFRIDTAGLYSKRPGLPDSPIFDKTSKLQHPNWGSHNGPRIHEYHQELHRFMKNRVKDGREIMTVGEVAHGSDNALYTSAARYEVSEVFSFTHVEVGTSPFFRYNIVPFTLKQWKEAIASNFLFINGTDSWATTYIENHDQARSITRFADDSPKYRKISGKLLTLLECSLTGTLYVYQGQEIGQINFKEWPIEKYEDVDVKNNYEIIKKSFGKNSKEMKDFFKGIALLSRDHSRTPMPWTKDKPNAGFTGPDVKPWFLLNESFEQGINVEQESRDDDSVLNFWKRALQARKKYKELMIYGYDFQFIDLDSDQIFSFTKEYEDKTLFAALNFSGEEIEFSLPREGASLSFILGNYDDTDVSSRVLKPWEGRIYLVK

SMILES	target	test	system	conditions	inhibition
COc1ccc2c(c1Cl)CC[C@@H]1[C@@H]2CC[C@@]2(C)C(=O)CC[C@@H]12	AKR1C3	enzyme activity, inhibitor, absorbance	–	10 µM, pH 9	50%
C[C@H](CCC(=O)N[C@H](CC(c1c[nH]c2ccc(OCc3ccccc3)cc12)c1c[nH]c2ccc(OCc3ccccc3)cc12)C(=O)O)[C@H]1CC[C@H]2[C@@H]3CC[C@@H]4C[C@H](O)CC[C@]4(C)[C@H]3CC[C@]12C	ST6GAL1	enzyme activity, inhibitor, UPLC	–	25 µM	100%
Cc1cc(NC(=O)[C@H](O)c2cc(F)cc(F)c2)ccc1-c1cnc(N)c(C(=O)NC(C)C)c1	RIOK2 (Homo sapiens, UniProt Q9BVS4)	cell-free assay, competition with immobilised ligand	–	1 µM	> 50%
Cc1cc2c(c(O)c1O)C(=O)c1c(O)cc(O)cc1C2=O	DRD4 (Homo sapiens, UniProt P21917)	cAMP, antagonist	CHO	50 µM	-2.4%
Oc1c(C(Nc2nccs2)c2ccccc2OCc2ccccc2)ccc2cccnc12 (stereo not drawn)	Genome polyprotein, NS2B-NS3 protease (Dengue virus type 2, UniProt P14340)	enzyme activity, inhibitor, fluorogenic	–	10 µM, 0.1% CHAPS, added: Bz-Nle-Lys-Arg-Arg-AMC substrate	76.9 ± 1.52%
COc1cc(O)c2c(=O)c(OC)c(-c3ccc(O)c(O)c3)oc2c1	MAL12 (Saccharomyces cerevisiae S288c, UniProt P53341)	enzyme activity, inhibitor, absorbance	–	50 µM	23.4%
Nc1ccccc1NC(=O)c1ccc(Nc2nccc(-c3cn(C4CCCC4)nn3)n2)cc1	CDK2 with cyclin A2	enzyme activity, inhibitor, TR-FRET	–	5 µM	20.2%
NC(=O)c1cn(CC(=O)NC[C@H](NC(=O)CCc2nc(-c3cccnc3)no2)C(=O)N[C@H]2C[C@H](C(=O)NO)C2)c(=O)[nH]c1=O	SIRT6	demyristoylation	–	10 µM	1%
Oc1c(C(Nc2nc3ccccc3s2)c2ccccc2OCc2ccccc2)ccc2cccnc12 (stereo not drawn)	Genome polyprotein, protease (Dengue virus type 2, UniProt P14340)	enzyme activity, inhibitor, fluorescence	–	10 µM	72.6%
NOCC(=O)O	CBS (Homo sapiens, UniProt P35520)	enzyme activity, inhibitor	–	30 µM	67%
Cc1cc(Nc2ccc(NC(=O)c3ccc(NC(=O)c4ccnc5ccccc45)cc3)cc2)nc(N)n1	DNA (cytosine-5)-methyltransferase 3A, catalytic domain (DNMT3A, Homo sapiens, UniProt Q9Y6K1)	enzyme activity, inhibitor	–	10 µM	29%
C[C@]12CC[C@@H]3c4cc(Br)c(O)cc4CC[C@H]3[C@@H]1CCC2=O	AKR1C3	enzyme activity, inhibitor, absorbance	–	10 µM, pH 9	13%
CN(C)c1ccc(NC(=S)N(C)c2ccccc2)cc1	Microtubule-associated protein tau, 2N3R isoform (MAPT, Homo sapiens, UniProt P10636)	tau fibril formation, ThT fluorescence	–	100 µM, tau at 10 µM	96%
COc1cc(C(=O)NC2CCC(N3CCN(CC4CCC5(CCCC5)C4)CC3)CC2)c(F)cc1Nc1ncc2c(n1)N(C1CCCC1(F)F)CC(F)(F)C(=O)N2C (stereo not drawn)	MERTK (Homo sapiens, UniProt Q12866)	cell-free assay, TR-FRET	–	10 µM	0.19%
C[C@]12CC[C@@H]3c4cc(Cl)c(O)cc4CC[C@H]3[C@@H]1CCC2=O	AKR1C3	enzyme activity, inhibitor, absorbance	–	100 µM, pH 9	86.8%
O=Cc1c2cc(Cl)ccc2n2c1c(-c1ccccc1)c(SC(F)(F)F)c1ccccc12	EGFR (Homo sapiens, UniProt P00533)	enzyme activity, inhibitor, ADP detection	–	1 µM	> 50%
NC(=O)c1cn(CC(=O)NC[C@H](NC(=O)CCc2nc(-c3cccnc3)no2)C(=O)NCCc2ccccc2)c(=O)[nH]c1=O	SIRT6	demyristoylation	–	10 µM	29%
NC(=O)c1ccc(C(=O)NOCc2ccc(Sc3cccc(Cl)c3)c(C(F)(F)F)c2)cc1	HDAC1 (Homo sapiens, UniProt Q13547)	cell-free assay, inhibitor	–	100 µM	17.1%

SMILES	target	test	system	conditions	inhibition
O=C(O)c1cccc(S(=O)(=O)N2CCOCC2)c1	Ectonucleoside triphosphate diphosphohydrolase 2	enzyme activity, inhibitor, absorbance	–	100 µM	8%
O=C(Nc1cccc(C(=O)Nc2ccc3[nH]ncc3c2)c1)Nc1cc(C(F)(F)F)ccc1F	NTRK1	enzyme activity, inhibitor, FRET	–	1 µM	80.3%
Nc1nc2cc(CC[C@H]3C[C@@H](n4ccc5c(N)ncnc54)[C@H](O)[C@@H]3O)ccc2cc1Br	PRMT7 (Homo sapiens, UniProt Q9NVM4)	enzyme activity, inhibitor	–	10 µM	< 15%
O=C(Nc1ccc(Cl)cc1)c1cccc(S(=O)(=O)Nc2ccc(Cl)cc2)c1	Ectonucleoside triphosphate diphosphohydrolase 2	enzyme activity, inhibitor, absorbance	–	100 µM	35%
C[C@@]12CC[C@@H]3c4cc(I)c(O)c(I)c4CC[C@H]3[C@@H]1CCC2=O	AKR1C3	enzyme activity, inhibitor, absorbance	–	10 µM, pH 9	2.6%
CNC(=O)c1ccccc1Oc1nc(Nc2cc(OC)c(OC)c(OC)c2)ncc1Br	NTRK1	enzyme activity, inhibitor	–	1 µM	30 to 50%
COc1ccc(-c2cc(C(F)(F)F)cc(S(=O)(=O)NCC(=O)Nc3ccc(C)cc3)n2)cc1	WRN (Homo sapiens, UniProt Q14191)	ATPase activity, ADP-Glo	–	concentration not given	inactive
C[C@H](NC(=O)CNC(=O)[C@@H]1CSSC[C@H](NC(=O)[C@H](C)NC(=O)CN)C(=O)N[C@@H](CCCNC(=N)N)C(=O)N[C@@H](CCCNC(=N)N)C(=O)N[C@@H](CCC(=O)O)C(=O)N[C@@H]([C@@H](C)O)C(=O)N[C@@H](C)C(=O)N[C@@H](Cc2c[nH]c3ccccc23)C(=O)N[C@@H](C)C(=O)N1)C(=O)O	Integrin alpha-V/beta-3 (Homo sapiens, UniProt P05106+P06756)	cell attachment to vitronectin	IMR-90	concentration not given	no inhibition
COc1ccc([C@@]23Oc4cc(OC)cc(OC)c4[C@]2(O)[C@@H]2OC(=O)[C@@H]2C3c2ccccc2)cc1 (mixture of isomers)	Retinoid-inducible serine carboxypeptidase (SCPEP1, Homo sapiens, UniProt Q9HB40)	inhibitor, competitive ABPP-SILAC	PC-3 cell lysate	1.0 µM	> 75%
COc1ccc2[nH]cc(C(C[C@@H](NC(=O)CC[C@@H](C)[C@H]3CC[C@H]4[C@@H]5CC[C@@H]6C[C@H](O)CC[C@]6(C)[C@H]5CC[C@]34C)C(=O)O)c3c[nH]c4ccc(OC)cc34)c2c1	ST6GAL1	enzyme activity, inhibitor, UPLC	–	25 µM	84%
COc1cc2c(cc1Cl)[C@H]1CC[C@@]3(C)C(=O)CC[C@H]3[C@@H]1CC2	AKR1C3	enzyme activity, inhibitor, absorbance	–	10 µM, pH 9	60%
CC(C)Cn1cc(-c2ccnc(Nc3ccc(OCCCCCCC(=O)NO)cc3)n2)nn1	CDK2 with cyclin A2	enzyme activity, inhibitor, TR-FRET	–	50 nM	0.53%
C[C@H](CCC(c1c[nH]c2ccccc12)c1c[nH]c2ccccc12)[C@H]1CC[C@H]2[C@@H]3CC[C@@H]4C[C@H](O)CC[C@]4(C)[C@H]3CC[C@]12C	Sialyltransferase ST3Gal-I	enzyme activity, inhibitor, UPLC	–	500 µM	100%
S=C(Nc1ccc(Cl)cc1)Nc1cccc2[nH]ccc12	Microtubule-associated protein tau, 0N3R isoform (MAPT, Homo sapiens, UniProt P10636)	fibril formation, ThT fluorescence	–	100 µM, 18 h, added: tau 10 µM	66%
C[C@]12CC[C@@H]3c4ccc(O)c(Br)c4CC[C@H]3[C@@H]1CCC2=O	AKR1C3	enzyme activity, inhibitor, absorbance	–	100 µM, pH 9	8.3%
O=C(NCc1nc(-c2ccc(Br)cc2)c[nH]1)Nc1ncc(Sc2ccccn2)s1	Enoyl-[acyl-carrier-protein] reductase [NADPH] FabI (Staphylococcus aureus, UniProt Q6GI75)	enzyme activity, inhibitor, absorbance	–	10 µM	22.4%
C[C@H](CCC(=O)N[C@H](CC(c1c[nH]c2ccc(Cl)cc12)c1c[nH]c2ccc(Cl)cc12)C(=O)O)[C@H]1CC[C@H]2[C@@H]3CC[C@@H]4C[C@H](O)CC[C@]4(C)[C@H]3CC[C@]12C	Sialyltransferase ST3Gal-I	enzyme activity, inhibitor, UPLC	–	500 µM	0%
CC(C)CCC[C@@H](C)[C@H]1CCC([C@@H]2CC[C@H]3C[C@H](O)CC[C@]3(C)[C@@H]2O)[C@]1(C)CC(=O)O (stereo partly drawn)	Bile acid receptor (NR1H4, Homo sapiens, UniProt Q96RI1)	reporter gene, antagonist, luciferase	HEK-293T	10 µM	100%
